{"data": "Measured values collected from several papers", "EGFR L861Q": "Epidermal growth factor receptor (EGFR, Homo sapiens, UniProt P00533, L861Q)", "EGFR G719C": "Epidermal growth factor receptor (EGFR, Homo sapiens, UniProt P00533, G719C)", "note": "Protocols differ between the studies behind these lines."}
{"SMILES": "COCC12C(=O)NC3C4(C(OC)CC1O)C1CC5(O)C(OC)C(O)C(OC(C)=O)(C1C5OC(=O)c1ccccc1)C3(O)C(OC)C24 (centres unmarked)", "target": "Epidermal growth factor receptor (EGFR, Homo sapiens, UniProt P00533, L858R/T790M)", "assay": "kinase activity, inhibitor, ProQinase kinase profiling", "conditions": "25 µM", "scale": "baseline: control", "measurement": "remaining activity", "result": "98%"}
{"SMILES": "O=C=[N][Ru-4]123([n]4c5ccc(O)cc5c5c6c(c7cc(F)c[n+]1c7c54)C(=O)NC6=O)[S+]1CC[S+]2CC[S+]3CC1 (centres unmarked)", "target": "EGFR L861Q", "assay": "enzyme activity", "conditions": "100 nM, human enzyme, together with: 10 µM ATP", "scale": "baseline: untreated", "measurement": "remaining activity", "result": "111%"}
{"SMILES": "C=CC(=O)N1CCCC(n2c(=O)c3ncccc3n(Cc3ccc(Oc4ccccc4)cc3)c2=O)C1 (centres unmarked)", "target": "Epidermal growth factor receptor (EGFR, Homo sapiens, UniProt P00533, del752-759)", "assay": "cell-free assay, competition with immobilised ligand", "conditions": "1 µM", "measurement": "remaining binding", "result": "92%"}
{"SMILES": "Cc1ccc(-c2c(/C=C(\\C#N)C(=O)NC(C)C)n(CCCO)c3ncnc(N)c23)cc1", "target": "EGFR G719C", "assay": "cell-free assay, competition with immobilised ligand", "conditions": "1 µM", "measurement": "remaining binding", "result": "100%"}
{"SMILES": "Nc1ncc2c(n1)-c1c([nH]c3ccc(C4=CCOCC4)cc13)CCC2", "target": "Epidermal growth factor receptor (EGFR, Homo sapiens, UniProt P00533, del746-750)", "assay": "binding, competition with immobilised ligand", "conditions": "1 µM", "measurement": "remaining binding", "result": "21%"}
{"SMILES": "CNC1C[S+]2CC[S+]3CC[S+](C1)[Ru-4]321([N]=C=S)[n]2c3ccc(OC)cc3c3c4c(c5cc(F)c[n+]1c5c32)C(=O)NC4=O (centres unmarked)", "target": "EGFR G719C", "assay": "KinomeScan", "conditions": "0.1 µM", "scale": "baseline: untreated", "measurement": "remaining binding", "result": "100%"}
{"SMILES": "CNC(=O)C1CCN(c2cc(C)c(F)cc2NC(=O)c2ccc(-c3cc(O)ccc3C)c(C)c2)CC1", "target": "EGFR L861Q", "assay": "binding, competition with immobilised ligand", "conditions": "1 µM", "measurement": "remaining binding", "result": "54%"}
{"SMILES": "CC(C)=CC1OC(C)(C)C2C=C3C(=O)C(Cl)=CC(O)C3C3C(O)C4OC4C(=O)C132 (centres unmarked)", "target": "EGFR G719C", "assay": "cell-free assay, competition with immobilised ligand", "conditions": "10 µM", "measurement": "remaining binding", "result": "96%"}
